Measured values collected from several papers.
Lines come from different studies, so protocols differ. “And” joins repeats or separate records; there may be more than shown. ± gives the spread as reported.
B1: gpI (bacteriophage lambda, UniProt P03730); sequence looked up; chain MAATHTLPLASPGMARICLYGDLQRFGRRIDLRVKTGAEAIRALATQLPAFRQKLSDGWYQVRIAGRDVSTSGLTAQLHETLPDGAVIHIVPRVAGAKSGGVFQIVLGAAAIAGSFFTAGATLAAWGAAIGAGGMTGILFSLGASMVLGGVAQMLAPKARTPRIQTTDNGKQNTYFSSLDNMVAQGNVLPVLYGEMRVGSRVVSQEISTADEGDGGQVVVIGR
B2: enzyme (Enterococcus faecalis, UniProt Q836M4); chain MEIHFEKVTSDNRKAVENLQVFAEQQAFIESMAENLKESDQFPEWESAGIYDGNQLIGYAMYGRWQDGRVWLDRFLIDQRFQGQGYGKAACRLLMLKLIEKYQTNKLYLSVYDTNSSAIRLYQQLGFVFNGELDTNGERVMEWTHQNK
B3: lacI 1-360 N125A/D149A (Escherichia coli, UniProt P03023); chain MKPVTLYDVAEYAGVSYQTVSRVVNQASHVSAKTREKVEAAMAELNYIPNRVAQQLAGKQSLLIGVATSSLALHAPSQIVAAIKSRADQLGASVVVSMVERSGVEACKAAVHNLLAQRVSGLIIAYPLDDQDAIAVEAACTNVPALFLAVSDQTPINSIIFSHEDGTRLGVEHLVALGHQQIALLAGPLSSVSARLRLAGWHKYLTRNQIQPIAEREGDWSAMSGFQQTMQMLNEGIVPTAMLVANDQMALGAMRAITESGLRVGADISVVGYDDTEDSSCYIPPLTTIKQDFRLLGQTSVDRLLQLSQGQAVKGNQLLPVSLVKRKTTLAPNTQTASPRALADSLMQLARQVSRLESGQ
B4: pyrE R53A/R56A (Burkholderia cenocepacia, UniProt B4E589); chain MTGYDRQSISDTTAKILLEVQAVHFNAEKPFIFTSGWASPVYIDCRKLISYPAVRAALMEMAETTITRDIGFEQIDAVAGGETAGIPFAAWIADRMMVPMQYVRKKPKGFGRNAQIEGHLEEGSRVLLVEDLTTDSRSKINFVNALRTAGATVNHCFVLFHYNIFKESVSVLKDIDVDLHALATWWDVLRVAKASGYFETKTLDEVEKFLHAPAEWSAAHGGATAPKE
Sequence of UniProt O15354 (whole entry, looked up): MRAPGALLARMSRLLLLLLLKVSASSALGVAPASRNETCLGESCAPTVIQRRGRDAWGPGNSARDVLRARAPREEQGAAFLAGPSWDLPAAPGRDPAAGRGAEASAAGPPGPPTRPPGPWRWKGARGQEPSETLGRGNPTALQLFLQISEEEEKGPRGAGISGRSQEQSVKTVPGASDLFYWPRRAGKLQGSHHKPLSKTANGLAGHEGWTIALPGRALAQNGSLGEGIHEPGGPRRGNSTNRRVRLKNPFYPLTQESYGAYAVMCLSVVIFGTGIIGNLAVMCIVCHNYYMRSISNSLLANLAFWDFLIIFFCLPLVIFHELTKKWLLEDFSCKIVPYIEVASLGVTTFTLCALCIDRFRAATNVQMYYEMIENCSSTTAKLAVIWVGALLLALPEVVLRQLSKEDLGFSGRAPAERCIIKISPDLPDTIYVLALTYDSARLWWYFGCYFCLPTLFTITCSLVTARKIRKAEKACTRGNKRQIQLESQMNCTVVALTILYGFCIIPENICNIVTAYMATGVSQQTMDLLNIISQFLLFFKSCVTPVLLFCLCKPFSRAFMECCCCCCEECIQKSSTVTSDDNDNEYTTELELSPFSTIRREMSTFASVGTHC

Substance | target or system | assay | system | conditions | how to read | measurement | value
B1 (gpI) | itself | cryo-EM |  |  |  | subunits per oligomer | 3
aspterric acid | Arabidopsis thaliana | root length | Col-0, seedlings | 50 µg/mL, with BCAA |  | inhibition | 25.4%
insulin human |  | item: GCLM | mouse, EcoHIV-infected, brain | ip, dose not given, added: insulin | relative to: PBS-treated | mRNA fold change | 1.12
glucagon |  | ELISA | human, type 1 diabetes, femoral artery plasma | intravenous infusion, 0.05 ng/kg/min, 100 to 120 min |  | plasma concentration | 0.025 ± 0.0022 ng/mL
HVLVMSATRR |  |  | peptide, C57BL/6J mice | Alzet osmotic pump, 3 mg/kg, 8 weeks | relative to: leukocytes | lymphocytes | 93% and 84% and 90%
nonaarginine | PorA peptide pore | peptide binding, planar bilayer single-channel recording |  | pH 7.4, -15 mV, cis side, 150 mM KCl |  | Kd | 1110 ± 100 nM
heparin sodium |  |  | healthy Chinese adult volunteers | continuous intravenous infusion, 8 IU/kg/h, 5 days |  | subjects with serious AEs | 0%
B2 (enzyme) | CC(=O)SCCNC(=O)CCNC(=O)[C@H](O)C(C)(C)COP(=O)(O)OP(=O)(O)OC[C@H]1O[C@@H](n2cnc3c(N)ncnc32)[C@H](O)[C@@H]1OP(=O)(O)O | steady-state kinetics |  | pH 8, 37 °C, Hill n 1.36, added: spermine 1 mM |  | K0.5 | 205 µM
B3 (lacI 1-360 N125A/D149A) | itself | SEC |  |  |  | subunits per oligomer | 4
Polymyxin B |  |  | mouse | intraperitoneal, 40 mg/kg single dose, day 5 |  | survival | 0%
B4 (pyrE R53A/R56A) | itself | SEC |  |  |  | subunits per oligomer | 2
amyloid β-peptide (1–28) |  | substrate, LC-MS | phosphate buffer | 10 µM, 12 h, pH 7.4, 25 °C, added: imprinted nanoparticle 1 equiv |  | remaining substrate | < 0.1%
enzyme (Bos taurus, UniProt F1N7C2) | CCCCCCCC/C=C\CCCCCCCC(=O)OC[C@H](COP(=O)(O)OC[C@H](N)C(=O)O)OC(=O)CCCCCCC/C=C\CCCCCCCC | steady-state kinetics |  | pH 7.5, 37 °C, added: ATP 5 mM |  | K0.5 | 21.5 µM
pertussis toxin | GPR37 (Homo sapiens, UniProt O15354) | osteocalcin-induced pERK, inhibitor | HEK293 cells transfected with GPR37 | concentration not given, added: osteocalcin after pretreatment |  | ERK phosphorylation | inhibited
ALS1 Q169N/V170Q (Oryza sativa) | CC(=O)C(=O)O | steady-state kinetics |  | pH 7.5, 37 °C, added: FAD, MgCl2, TPP |  | Vmax | 0.0131 µmol/min/mg

Excerpt of the above:
Substance | target or system | assay | system | conditions | how to read | measurement | value
enzyme (Bos taurus, UniProt F1N7C2) | CCCCCCCC/C=C\CCCCCCCC(=O)OC[C@H](COP(=O)(O)OC[C@H](N)C(=O)O)OC(=O)CCCCCCC/C=C\CCCCCCCC | steady-state kinetics |  | pH 7.5, 37 °C, added: ATP 5 mM |  | K0.5 | 21.5 µM
